Assay results pooled from the literature.
Several values in a cell are separate wells, animals, samples, runs or records.
Target: Ribosomal protein S6 kinase beta-1 (RPS6KB1, Homo sapiens, UniProt P23443)

SMILES | effect on | action | method | concentration | baseline | quantity | result
COc1cc(-n2cc3cc(F)cc(C(N)=O)c3n2)cc(Cl)c1C1CC(O)(CCO)Cc2ccccc21 (stereo not shown) | enzyme activity | inhibitor | – | 10 µM | – | inhibition | 1.35%
COc1c(Cl)cccc1Nc1c(-c2ccncc2C#C[C@@]2(C)CCCN2C(=O)/C=C/CN(C)C)[nH]c2c1C(=O)NCC2 | binding | – | competition with immobilised ligand | 3 µM | – | remaining binding | 90%
C=CC(=O)Nc1cccc(-c2cnc3[nH]cc(C(=O)NC(C)(C)C)c3n2)c1 | kinase activity | – | – | 0.1 µM | – | inhibition | 3% and 2%
Cc1cccc(-c2ccc3nc(NC(=O)C4CCCCC4)nn3c2)c1 | enzyme activity | – | Dundee kinase panel | 10 µM | – | remaining activity | 86%
c1ccc2c(Nc3cc(C4CCC4)[nH]n3)nc(Nc3ccc4nc[nH]c4c3)nc2c1 | enzyme activity | inhibitor | – | 0.25 µM | – | remaining activity | 21%
CN1CC[C@@H](COc2cnc(C#N)cc2-c2ccn3nc(NC(=O)C4CC4)cc3c2)C1 | enzyme activity | inhibitor | – | 1 µM | – | inhibition | 4%
NC(=O)C[C@H]1CCc2sc3ncnc(O[C@H]4CC[C@H](N5CCOCC5)CC4)c3c21 | enzyme activity | inhibitor | – | 10 µM | – | inhibition | 4%
Cc1ccc(-c2c(/C=C(\C#N)C(=O)NC(C)C)n(CCCO)c3ncnc(N)c23)cc1 | cell-free assay | – | competition with immobilised ligand | 1 µM | – | remaining binding | 87%
CCN1CCN(Cc2ccc(C(=O)Nc3ccc(C)c(NCc4cnc5[nH]ccc5c4OC)c3)cc2C(F)(F)F)CC1 | binding | – | competition with immobilised ligand | 1 µM | – | remaining binding | 44%
O=C(Cc1ccc(OCc2ccccc2)cc1)NC1(C(=O)O)CCN(C(=O)c2ccc(-c3cccc(Cl)c3)cc2)CC1 | enzyme activity | inhibitor | – | 10 µM | – | activity vs control | 107%
CNC(=O)C1CCN(c2cc(C)c(F)cc2NC(=O)c2ccc(-c3cc(O)ccc3C)c(C)c2)CC1 | binding | – | competition with immobilised ligand | 1 µM | – | remaining binding | 98%
COc1c(OCCCN2CCOCC2)ccc2c1N=C(NC(=O)c1cnc(N)nc1)N1CCN=C21 | kinase activity | inhibitor | – | 1 µM | untreated control | remaining activity | 97%
COc1cc(Nc2nc(C)cc(-c3cnn4nc(OC)ccc34)n2)cc(C(F)(F)F)c1 | binding | – | competition with immobilised ligand | 1 µM | – | remaining binding | 87%
CC(C)=CC1OC(C)(C)C2C=C3C(=O)C(Cl)=CC(O)C3C3C(O)C4OC4C(=O)C132 (stereo not shown) | cell-free assay | – | competition with immobilised ligand | 10 µM | – | remaining binding | 77%
O=C(O)CCC(=O)c1cccc(NS(=O)(=O)c2c[nH]c3ncccc23)c1 | kinase activity | – | radiometric | 10 µM | – | remaining activity | 99%
Cc1cccc(-c2ccc3nc(NC(=O)C4CCOCC4)nn3c2)c1 | enzyme activity | – | Dundee kinase panel | 10 µM | – | remaining activity | 107%
C=CC(=O)N1CCc2ccc(-n3c(=O)ccc4cnc5ccc(-c6cnn(C)c6)cc5c43)cc21 | – | – | KINOMEscan | 1 µM | DMSO control | remaining binding | 95%
Cc1cccc(O[C@H]2CCC[C@@H](C(C)CNCc3ccncc3)C2)c1 (relative stereo) | enzyme activity | inhibitor | – | 10 µM | – | inhibition | -1%
Nc1nc(Nc2ccccc2)sc1C(=O)c1ccccc1 | enzyme activity | inhibitor | – | 10 µM | – | remaining activity | 53%

Excerpt of the above:
SMILES | effect on | action | method | concentration | baseline | quantity | result
COc1cc(-n2cc3cc(F)cc(C(N)=O)c3n2)cc(Cl)c1C1CC(O)(CCO)Cc2ccccc21 (stereo not shown) | enzyme activity | inhibitor | – | 10 µM | – | inhibition | 1.35%
C=CC(=O)N1CCc2ccc(-n3c(=O)ccc4cnc5ccc(-c6cnn(C)c6)cc5c43)cc21 | – | – | KINOMEscan | 1 µM | DMSO control | remaining binding | 95%
